# Measured values gathered from unrelated publications.
# Protocols differ between the studies behind these lines.
# Organism: Enterococcus faecalis
Compound,assay,system,conditions,MIC
CC[C@H](C)[C@H](NC(=O)[C@H](Cc1c[nH]c2ccccc12)NC(=O)[C@H](Cc1ccc(O)cc1)NC(=O)[C@H](CCCCN)NC(=O)[C@H](CC(C)C)NC(=O)[C@@H](N)CO)C(=O)N[C@@H](CCCNC(=N)N)C(=O)N[C@@H](Cc1ccc(O)cc1)C(=O)N[C@@H](CCCCN)C(=O)N[C@@H](CCCNC(=N)N)C(=O)N[C@@H](CCC(N)=O)C(=O)NCC(=O)N[C@@H](C)C(=O)N[C@@H](C)C(=O)N[C@@H](CCCNC(=N)N)C(=O)N[C@@H](Cc1ccccc1)C(N)=O,broth dilution,KCTC 3511,,12.5 µM
C#CCNC(=O)[C@H]1NC(=O)[C@H]2NC(=O)[C@H](NC(=O)[C@@H]3NC(=O)[C@H](CC(N)=O)NC(=O)[C@H](NC(=O)[C@@H](CC(C)C)NC)[C@H](O)c4ccc(c(Cl)c4)Oc4cc3cc(c4O[C@@H]3O[C@H](CO)[C@@H](O)[C@H](O)[C@H]3O[C@H]3C[C@](C)(N)[C@H](O)[C@H](C)O3)Oc3ccc(cc3Cl)[C@H]2O)c2ccc(O)c(c2)-c2c(O)cc(O)cc21,broth microdilution,"vancomycin-resistant, tryptic soy broth","20 to 24 h, 37 °C, 0.002% polysorbate 80",16 µg/mL
CC[C@H](C)[C@H](NC(=O)[C@H](CC(C)C)NC(=O)[C@H](CCCNC(=N)N)NC(=O)CNC(=O)CNC(=O)[C@H](CCCCN)NC(=O)[C@H](CCCNC(=N)N)NC(=O)[C@H](CC(C)C)NC(=O)[C@H](CC(C)C)NC(=O)[C@H](CCCNC(=N)N)NC(=O)[C@@H](NC(=O)[C@H](CC(C)C)NC(=O)[C@@H](N)CO)[C@@H](C)O)C(=O)NCC(=O)N[C@@H](Cc1c[nH]c2ccccc12)C(=O)N[C@@H](CCCNC(=N)N)C(=O)N[C@@H](Cc1c[nH]c2ccccc12)C(=O)N[C@@H](CCC(=O)O)C(=O)N[C@@H](CCCCN)C(=O)N[C@H](C(=O)N[C@@H](CCCNC(=N)N)C(=O)N[C@@H](CC(N)=O)C(=O)N[C@@H](Cc1c[nH]c2ccccc12)C(=O)N[C@H](C(=O)N[C@@H](CCCNC(=N)N)C(=O)N[C@@H](CCCNC(=N)N)C(=O)N[C@H](C(=O)N[C@H](C(=O)N[C@@H](CCC(=O)O)C(=O)N[C@@H](CCCCN)C(=O)N[C@@H](CCCNC(=N)N)C(=O)N[C@@H](CCCCN)C(=O)N1CCC[C@H]1C(=O)N[C@@H](CC(N)=O)C(=O)N[C@@H](CCCCN)C(=O)O)[C@@H](C)CC)[C@@H](C)CC)[C@@H](C)CC)[C@@H](C)O,,ATCC 29212,,8.79 µg/mL
CN[C@@H]1[C@H](O)[C@H](NC)[C@H]2O[C@]3(O)[C@H](O[C@@H]2[C@H]1O)O[C@H](C)C[C@H]3NC(=O)Cc1ccc(F)cn1,"microbial growth, broth dilution",ATCC33186,,25 µg/mL
CC(C)C[C@H](NC(=O)[C@@H](NC(=O)[C@H](CCCNC(=N)N)NC(=O)[C@H](CCC(N)=O)NC(=O)[C@H](Cc1ccccc1)NC(=O)[C@H](Cc1ccc(O)cc1)NC(=O)[C@H](CC(N)=O)NC(=O)[C@H](Cc1c[nH]c2ccccc12)NC(=O)[C@@H](NC(=O)[C@H](CCCNC(=N)N)NC(=O)[C@H](CCCCN)NC(=O)[C@@H](N)Cc1ccccc1)C(C)C)C(C)C)C(=O)N[C@H](C(=O)N[C@@H](CCCCN)C(=O)N[C@@H](CCCCN)C(=O)N[C@@H](Cc1ccc(O)cc1)C(N)=O)C(C)C,broth dilution,KCTC 3511,,> 100 µM
CN[C@H](CC(C)C)C(=O)N[C@H]1C(=O)N[C@@H](CC(N)=O)C(=O)N[C@H]2C(=O)N[C@H]3C(=O)N[C@H](C(=O)N[C@H](C(=O)O)c4cc(O)cc(O)c4-c4cc3ccc4O)[C@H](O)c3ccc(c(Cl)c3)Oc3cc2cc(c3O[C@@H]2O[C@H](CO)[C@@H](O)[C@H](O)[C@H]2O[C@H]2C[C@](C)(NCc3ccc(OCc4cn(CC(=O)N[C@H](C(=O)N[C@@H](CCN)C(=O)N[C@H]5CCNC(=O)[C@H]([C@@H](C)O)NC(=O)[C@H](CCN)NC(=O)[C@H](CCN)NC(=O)[C@H](CC(C)C)NC(=O)[C@@H](CC(C)C)NC(=O)[C@H](CCN)NC5=O)[C@@H](C)O)nn4)c(OC)c3)[C@H](O)[C@H](C)O2)Oc2ccc(cc2Cl)[C@H]1O,broth microdilution,vancomycin-resistant,,24 µM
O=C(c1ccccc1O)c1[nH]c(Cl)c(Cl)c1-n1c(C(=O)c2ccccc2O)cc(Cl)c1Cl,microbial growth,ATCC29212,,13.3 µM
CN[C@H](CC(C)C)C(=O)N[C@H]1C(=O)N[C@@H](CC(N)=O)C(=O)N[C@H]2C(=O)N[C@H]3C(=O)N[C@H](C(=O)N[C@H](C(=O)NCc4cn(CCCCC(=O)N[C@H](C(=O)N[C@@H](CCN)C(=O)N[C@H]5CCNC(=O)[C@H]([C@@H](C)O)NC(=O)[C@H](CCN)NC(=O)[C@H](CCN)NC(=O)[C@H](CC(C)C)NC(=O)[C@@H](CC(C)C)NC(=O)[C@H](CCN)NC5=O)[C@@H](C)O)nn4)c4cc(O)cc(O)c4-c4cc3ccc4O)[C@H](O)c3ccc(c(Cl)c3)Oc3cc2cc(c3O[C@@H]2O[C@H](CO)[C@@H](O)[C@H](O)[C@H]2O[C@H]2C[C@](C)(N)[C@H](O)[C@H](C)O2)Oc2ccc(cc2Cl)[C@H]1O,broth microdilution,vancomycin-resistant,,25 µM
CNC(C)C1CCC(N)C(OC2C(N)CC(N)C(OC3OCC(C)(O)C(NC)C3O)C2O)O1 (stereo not drawn),,clinical isolate,"18 to 20 h, 37 °C",2 µM

# Excerpt of the above:
Compound,assay,system,conditions,MIC
O=C(c1ccccc1O)c1[nH]c(Cl)c(Cl)c1-n1c(C(=O)c2ccccc2O)cc(Cl)c1Cl,microbial growth,ATCC29212,,13.3 µM
